{"data": "Published values from different studies", "FGFR3 isoform IIIc": "FGFR3 isoform IIIc (unknown, UniProt Q61851)", "T1": "HSP90AA1 723-732 C-terminal peptide M to I, N-terminal 5-carboxyfluorescein (Homo sapiens); DDTSRIEEVD", "B1": "RAD51 (Homo sapiens, UniProt Q06609); chain MAMQMQLEANADTSVEEESFGPQPISRLEQCGINANDVKKLEEAGFHTVEAVAYAPKKELINIKGISEAKADKILAEAAKLVPMGFTTATEFHQRRSEIIQITTGSKELDKLLQGGIETGSITEMFGEFRTGKTQICHTLAVTCQLPIDRGGGEGKAMYIDTEGTFRPERLLAVAERYGLSGSDVLDNVAYARAFNTDHQTQLLYQASAMMVESRYALLIVDSATALYRTDYSGRGELSARQMHLARFLRMLLRLADEFGVAVVITNQVVAQVDGAAMFAADPKKPIGGNIIAHASTTRLYLRKGRGETRICKIYDSPCLPEAEAMFAINADGVGDAKD", "B2": "FGF6 (Homo sapiens, UniProt P10767); chain SPAGTRANNTLLDSRGWGTLLSRSRAGLAGEIAGVNWESGYLVGIKRQRRLYCNVGIGFHLQVLPDGRISGTHEENPYSLLEISTVERGVVSLFGVRSALFVAMNSKGRLYATPSFQEECKFRETLLPNNYNAYESDLYQGTYIALSKYGRVKRGSKVSPIMTVTHFLPRI", "B3": "mel-26 (Caenorhabditis elegans, UniProt Q94420); sequence looked up; chain MEPRIDGGVFIGGIGNSGNEMCSNGVPALGVSSQTEIKVEKVQHTWTVKNFSHCYQEYLENFVYLQRGDEQLTWSIKIYPKGNGENNKDFVFLCLNRVINNNVKAGKIGFKSQFKLRTAENKDIEMRIHPNPSHSDYVSYIKRDVLFPQIMPRDMIIVNVEIDVAVETITTTNEPIQFEPTNSEQQLIEDYQRLFSQELLCDFAINVNGKIIRAHKAVLAARSPVFNAMLTHQDTDEAKSSMMYINDMDYDVIYEMVYYIYCGRCNKDITDMATALLIAADKYRLEELKSHCEKYLVENINIENACSLLIIGDLYSAPKLRKRAVTYILARPKNVTGTPGWEDILKGHPNLITDIFSQIDRQSSTGATSSVSNLPGVPMDIPGITGNIVPPPSGL", "B4": "KLRK1 (Homo sapiens, UniProt P26718); sequence looked up; chain MGWIRGRRSRHSWEMSEFHNYNLDLKKSDFSTRWQKQRCPVVKSKCRENASPFFFCCFIAVAMGIRFIIMVTIWSAVFLNSLFNQEVQIPLTESYCGPCPKNWICYKNNCYQFFDESKNWYESQASCMSQNASLLKVYSKEDQDLLKLVKSYHWMGLVHIPTNGSWQWEDGSILSPNLLTIIEMQKGDCALYASSFKGYIENCSTPNTYICMQRTV", "note": "Each line is one published result; not all experiments were run side by side. Numbers after ± are the reported error.", "UniProt Q61851, sequence (whole entry, looked up)": "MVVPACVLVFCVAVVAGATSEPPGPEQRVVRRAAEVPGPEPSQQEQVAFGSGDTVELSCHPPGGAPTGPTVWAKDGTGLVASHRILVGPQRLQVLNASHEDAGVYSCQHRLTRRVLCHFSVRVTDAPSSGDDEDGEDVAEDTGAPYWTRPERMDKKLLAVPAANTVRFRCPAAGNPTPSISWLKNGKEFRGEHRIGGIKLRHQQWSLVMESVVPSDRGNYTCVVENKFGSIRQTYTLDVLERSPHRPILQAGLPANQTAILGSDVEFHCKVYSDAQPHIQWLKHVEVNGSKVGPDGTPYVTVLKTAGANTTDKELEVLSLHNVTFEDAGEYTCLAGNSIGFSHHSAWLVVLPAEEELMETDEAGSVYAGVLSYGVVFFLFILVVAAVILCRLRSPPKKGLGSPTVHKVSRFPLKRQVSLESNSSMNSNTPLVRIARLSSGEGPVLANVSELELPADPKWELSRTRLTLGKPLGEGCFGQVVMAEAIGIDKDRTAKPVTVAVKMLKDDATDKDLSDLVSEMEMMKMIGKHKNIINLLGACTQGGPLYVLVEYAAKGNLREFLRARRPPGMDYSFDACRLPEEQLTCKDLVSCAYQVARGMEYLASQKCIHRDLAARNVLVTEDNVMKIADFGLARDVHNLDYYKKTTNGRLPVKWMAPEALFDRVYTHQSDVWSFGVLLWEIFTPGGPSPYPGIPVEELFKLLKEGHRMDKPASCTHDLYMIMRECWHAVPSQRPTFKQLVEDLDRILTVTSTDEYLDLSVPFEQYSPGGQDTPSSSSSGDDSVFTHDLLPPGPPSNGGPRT", "UniProt P08253, sequence (whole entry, unmodified, looked up)": "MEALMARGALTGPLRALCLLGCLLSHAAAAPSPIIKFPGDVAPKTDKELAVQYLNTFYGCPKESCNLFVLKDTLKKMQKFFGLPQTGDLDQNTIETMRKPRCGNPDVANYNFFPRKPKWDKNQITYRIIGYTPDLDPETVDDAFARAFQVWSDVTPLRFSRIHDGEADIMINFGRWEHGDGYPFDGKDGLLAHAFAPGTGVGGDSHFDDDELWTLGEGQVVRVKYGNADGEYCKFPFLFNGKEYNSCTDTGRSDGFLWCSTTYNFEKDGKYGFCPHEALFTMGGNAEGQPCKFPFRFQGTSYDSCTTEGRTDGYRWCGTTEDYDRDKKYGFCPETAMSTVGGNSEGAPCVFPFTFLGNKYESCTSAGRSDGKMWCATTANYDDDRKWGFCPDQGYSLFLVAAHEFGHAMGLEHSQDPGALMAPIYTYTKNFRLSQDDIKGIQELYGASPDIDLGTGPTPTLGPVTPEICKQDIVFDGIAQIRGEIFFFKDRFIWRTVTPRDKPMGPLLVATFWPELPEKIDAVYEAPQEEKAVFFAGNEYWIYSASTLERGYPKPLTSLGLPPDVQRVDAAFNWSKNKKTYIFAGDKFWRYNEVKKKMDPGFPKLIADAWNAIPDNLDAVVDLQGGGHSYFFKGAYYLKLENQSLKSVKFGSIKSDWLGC", "UniProt Q8NFZ0, sequence (whole entry, looked up)": "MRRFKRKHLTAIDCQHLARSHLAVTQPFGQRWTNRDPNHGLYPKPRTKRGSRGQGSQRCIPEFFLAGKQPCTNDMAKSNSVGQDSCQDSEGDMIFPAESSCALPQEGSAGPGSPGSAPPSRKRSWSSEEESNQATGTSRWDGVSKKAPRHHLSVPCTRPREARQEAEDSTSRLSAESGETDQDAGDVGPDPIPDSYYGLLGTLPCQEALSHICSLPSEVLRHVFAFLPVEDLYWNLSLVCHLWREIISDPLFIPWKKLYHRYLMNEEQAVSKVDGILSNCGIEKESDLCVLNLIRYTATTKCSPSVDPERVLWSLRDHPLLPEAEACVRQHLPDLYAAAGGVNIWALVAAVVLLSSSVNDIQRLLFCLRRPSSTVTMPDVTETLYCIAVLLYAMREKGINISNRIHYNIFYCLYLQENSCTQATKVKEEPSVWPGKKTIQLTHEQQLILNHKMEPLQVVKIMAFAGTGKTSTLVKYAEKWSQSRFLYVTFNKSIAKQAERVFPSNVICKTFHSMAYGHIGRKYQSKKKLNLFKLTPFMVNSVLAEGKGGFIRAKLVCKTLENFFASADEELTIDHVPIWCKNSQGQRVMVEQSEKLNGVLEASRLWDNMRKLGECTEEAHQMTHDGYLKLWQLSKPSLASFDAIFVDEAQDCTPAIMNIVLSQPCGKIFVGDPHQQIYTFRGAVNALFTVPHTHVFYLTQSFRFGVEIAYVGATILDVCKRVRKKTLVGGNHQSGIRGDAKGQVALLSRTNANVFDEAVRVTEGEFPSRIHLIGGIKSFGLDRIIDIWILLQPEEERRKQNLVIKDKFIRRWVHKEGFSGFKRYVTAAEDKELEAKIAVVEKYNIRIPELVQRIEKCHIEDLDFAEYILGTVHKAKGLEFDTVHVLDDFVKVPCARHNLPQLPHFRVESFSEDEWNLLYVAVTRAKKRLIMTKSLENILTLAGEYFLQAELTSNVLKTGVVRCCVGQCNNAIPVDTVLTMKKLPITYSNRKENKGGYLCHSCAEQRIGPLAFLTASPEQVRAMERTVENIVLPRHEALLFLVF", "UniProt P48061, sequence (whole entry, looked up)": "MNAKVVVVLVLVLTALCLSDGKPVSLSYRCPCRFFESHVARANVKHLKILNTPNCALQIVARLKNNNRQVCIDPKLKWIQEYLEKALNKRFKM", "UniProt Q9UQ84, sequence (whole entry, looked up)": "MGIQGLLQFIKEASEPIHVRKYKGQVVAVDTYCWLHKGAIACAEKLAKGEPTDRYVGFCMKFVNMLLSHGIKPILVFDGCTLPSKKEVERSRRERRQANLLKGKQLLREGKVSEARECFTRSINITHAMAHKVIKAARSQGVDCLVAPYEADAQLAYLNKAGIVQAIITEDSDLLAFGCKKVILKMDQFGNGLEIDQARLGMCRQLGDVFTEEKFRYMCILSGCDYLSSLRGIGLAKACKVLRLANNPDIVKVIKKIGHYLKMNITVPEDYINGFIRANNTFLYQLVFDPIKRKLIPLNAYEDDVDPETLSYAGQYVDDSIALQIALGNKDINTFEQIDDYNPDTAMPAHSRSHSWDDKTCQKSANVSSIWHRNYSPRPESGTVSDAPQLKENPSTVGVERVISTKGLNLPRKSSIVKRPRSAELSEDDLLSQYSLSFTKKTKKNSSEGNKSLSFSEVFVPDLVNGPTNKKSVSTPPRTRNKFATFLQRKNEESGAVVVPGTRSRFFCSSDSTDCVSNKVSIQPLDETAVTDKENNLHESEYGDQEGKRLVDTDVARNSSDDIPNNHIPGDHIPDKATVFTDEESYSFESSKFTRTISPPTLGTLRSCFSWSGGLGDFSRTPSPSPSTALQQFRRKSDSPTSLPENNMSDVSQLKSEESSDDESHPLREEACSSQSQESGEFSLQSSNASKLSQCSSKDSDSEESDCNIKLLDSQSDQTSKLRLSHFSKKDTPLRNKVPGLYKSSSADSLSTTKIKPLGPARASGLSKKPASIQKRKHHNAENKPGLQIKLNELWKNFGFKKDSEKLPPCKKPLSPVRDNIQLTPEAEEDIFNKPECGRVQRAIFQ", "UniProt P25106, sequence (whole entry, looked up)": "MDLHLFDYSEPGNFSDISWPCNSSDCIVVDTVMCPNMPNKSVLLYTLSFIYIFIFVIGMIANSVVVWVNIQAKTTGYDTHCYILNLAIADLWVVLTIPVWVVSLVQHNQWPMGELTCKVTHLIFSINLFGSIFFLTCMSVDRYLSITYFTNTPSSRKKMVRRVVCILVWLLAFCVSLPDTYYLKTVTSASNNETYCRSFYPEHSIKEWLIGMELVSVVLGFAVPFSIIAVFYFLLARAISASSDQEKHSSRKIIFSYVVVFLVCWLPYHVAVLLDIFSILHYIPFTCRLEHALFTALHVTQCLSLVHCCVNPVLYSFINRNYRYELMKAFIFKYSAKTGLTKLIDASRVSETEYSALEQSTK", "UniProt P0A6A8, sequence (whole entry, looked up)": "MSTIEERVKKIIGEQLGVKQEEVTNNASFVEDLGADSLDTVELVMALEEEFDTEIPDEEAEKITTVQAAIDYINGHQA", "UniProt P38912, sequence (whole entry, looked up)": "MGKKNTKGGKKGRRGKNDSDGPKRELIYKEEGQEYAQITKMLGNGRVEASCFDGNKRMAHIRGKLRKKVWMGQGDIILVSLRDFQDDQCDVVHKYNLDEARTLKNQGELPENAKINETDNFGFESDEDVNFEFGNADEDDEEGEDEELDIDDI", "UniProt P21554, sequence (whole entry, looked up)": "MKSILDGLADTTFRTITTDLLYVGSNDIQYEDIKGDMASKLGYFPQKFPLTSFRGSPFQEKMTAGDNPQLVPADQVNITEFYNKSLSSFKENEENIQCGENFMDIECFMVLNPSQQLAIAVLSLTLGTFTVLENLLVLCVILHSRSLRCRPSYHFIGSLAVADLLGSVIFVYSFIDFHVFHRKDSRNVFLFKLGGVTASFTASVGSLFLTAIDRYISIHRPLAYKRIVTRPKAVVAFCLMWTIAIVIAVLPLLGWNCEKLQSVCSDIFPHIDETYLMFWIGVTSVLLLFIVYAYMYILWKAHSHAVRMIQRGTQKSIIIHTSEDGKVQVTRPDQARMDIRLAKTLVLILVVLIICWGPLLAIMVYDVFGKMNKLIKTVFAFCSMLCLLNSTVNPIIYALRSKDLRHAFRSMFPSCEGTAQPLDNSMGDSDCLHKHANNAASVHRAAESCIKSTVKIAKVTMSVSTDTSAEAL", "UniProt P70618, sequence (whole entry, unmodified, looked up)": "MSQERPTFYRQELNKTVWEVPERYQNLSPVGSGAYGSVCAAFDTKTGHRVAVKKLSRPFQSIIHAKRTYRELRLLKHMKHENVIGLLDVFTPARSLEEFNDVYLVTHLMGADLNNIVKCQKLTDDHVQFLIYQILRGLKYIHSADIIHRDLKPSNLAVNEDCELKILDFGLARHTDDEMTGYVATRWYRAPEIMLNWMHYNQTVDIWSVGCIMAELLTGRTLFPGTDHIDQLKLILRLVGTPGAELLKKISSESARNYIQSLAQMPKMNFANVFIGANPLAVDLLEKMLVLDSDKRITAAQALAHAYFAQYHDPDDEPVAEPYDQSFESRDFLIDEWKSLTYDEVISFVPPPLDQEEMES"}
{"Molecule": "MMP2 fragment F297A/R368A (Homo sapiens)", "tested on": "COL1A1/COL1A2 denatured, gelatin (Homo sapiens)", "assay": "DQ-gelatin fluorescence", "conditions": "10 nM, 25 °C", "scale": "higher = faster hydrolysis", "measurement": "hydrolysis rate", "result": "0.1 RFU/s"}
{"Molecule": "YAGRRKERPTSLNVFP (MAPK8IP3 D-site peptide (Homo sapiens))", "tested on": "Mapk14 D315S/D316E/E317A, pT180, pY182 (Rattus norvegicus, UniProt P70618)", "assay": "kinase activity, inhibitor, competitive kinase inhibition assay", "system": "peptide", "conditions": "together with: ATP 1 mM", "measurement": "IC50", "result": "> 100000 nM"}
{"Molecule": "TIF11 (Saccharomyces cerevisiae, UniProt P38912)", "tested on": "FUN12 396-1002 (Saccharomyces cerevisiae, UniProt P39730)", "assay": "subunit joining, stopped-flow light scattering", "conditions": "first phase, together with: eIF5B•GTP 500 nM", "measurement": "rate constant", "result": "0.076 s⁻¹"}
{"Molecule": "FGF8 (Homo sapiens, UniProt P55075)", "tested on": "FGFR3 isoform IIIc", "assay": "cell proliferation, MTT", "system": "BaF3-FGFR3c", "conditions": "20 nM, 48 h, together with: 2-O desulfated heparin 4.9 µg/mL", "scale": "reference: FGF 1 with heparin, higher = more proliferation", "measurement": "cell proliferation", "result": "127%"}
{"Molecule": "ADM2 mature (Homo sapiens)", "tested on": "CALCRL/RAMP2 whole, on cells (Homo sapiens)", "assay": "cAMP, antagonist, CAMYEL BRET", "system": "COS-7", "conditions": "100 nM agonist", "measurement": "cAMP decay time constant", "result": "2.65 min"}
{"Molecule": "TIMP2 N-terminal domain S4P/V6G/I35V/S68N/V71I/T99N", "tested on": "MMP2 (Homo sapiens, UniProt P08253)", "assay": "fluorogenic substrate cleavage, inhibitor, enzyme inhibition assay", "conditions": "apparent", "measurement": "Ki", "result": "38.9 nM"}
{"Molecule": "F8 A2 subunit D519V/E665V (Homo sapiens)", "tested on": "F8 A1/A3C1C2 dimer (Homo sapiens)", "assay": "thrombin generation", "system": "FVIII-deficient plasma", "conditions": "0.13 nM", "measurement": "endogenous thrombin potential", "result": "1310 nM·min"}
{"Molecule": "KLLITIHDRKEFAKFEEERARAKW (ITGB3 742-765 (Homo sapiens, UniProt P05106); sequence looked up)", "tested on": "Myom1 IgC2 domains 4-5 C1354S (Mus musculus)", "assay": "ITC", "system": "peptide", "conditions": "pH 6.8, 25 °C, NaCl 50 mM", "measurement": "molecule per partner", "result": "1.3 ± 0.41"}
{"Molecule": "CXCL12 (UniProt P48061)", "tested on": "ACKR3 (Homo sapiens, UniProt P25106)", "assay": "CPM assay", "system": "micelles, bicelles, nanodiscs", "measurement": "Tm", "result": "> 60 °C"}
{"Molecule": "HSPA1A (Homo sapiens, UniProt P0DMV8)", "tested on": "MAPT (Homo sapiens, UniProt P10636-6)", "assay": "co-IP", "system": "HeLa", "conditions": "not purified, together with: DnaJA1 over-expression", "scale": "reference: control, higher = more Hsp70 co-precipitated", "measurement": "relative co-precipitation", "result": "2.76 fold"}
{"Molecule": "SUMO1 fragment H89A (Arabidopsis thaliana)", "tested on": "SAE2/SAE1a (Arabidopsis thaliana)", "assay": "SUMO conjugation", "conditions": "42 °C", "scale": "reference: native AtSUMO1, higher = faster conjugation", "measurement": "SUMO conjugation rate", "result": "40%"}
{"Molecule": "B1 (RAD51)", "tested on": "FBH1, polyubiquitinated (Homo sapiens, UniProt Q8NFZ0)", "assay": "single-molecule TIRFM", "conditions": "apparent, together with: ATP 1 mM", "measurement": "koff", "result": "0.11 s⁻¹"}
{"Molecule": "fabF R127A/K128A/R206A (Escherichia coli)", "tested on": "acpP C12-acylated 1-78, C12 acyl on 4'-phosphopantetheine (Escherichia coli, UniProt P0A6A8)", "assay": "holo-AcpP formation, HPLC", "conditions": "10 µM, together with: malonyl-CoA", "measurement": "condensation rate", "result": "0.13 min⁻¹"}
{"Molecule": "WRN fragment (Homo sapiens)", "tested on": "EXO1 (Homo sapiens, UniProt Q9UQ84)", "assay": "replication fork incision by EXO1, activator", "conditions": "4 nM, 15 min, 37 °C", "scale": "higher = more incision", "measurement": "incision", "result": "4 fold"}
{"Molecule": "F8 A2 domain (human)", "tested on": "F8 A1 and A3C1C2 dimer, factor VIIIa Y1792T", "assay": "FXa generation activity loss", "conditions": "1.5 nM, 23 °C", "scale": "higher = faster decay", "measurement": "decay rate", "result": "1.06 min⁻¹"}
{"Molecule": "FGF8b (Homo sapiens)", "tested on": "FGFR3 isoform IIIc", "assay": "cell proliferation, MTT", "system": "BaF3-FGFR3c", "conditions": "20 nM, 48 h, together with: heparosan 4.9 µg/mL", "scale": "reference: FGF 1 with heparin, higher = more proliferation", "measurement": "cell proliferation", "result": "31%"}
{"Molecule": "TFPI endogenous, on cells (Homo sapiens, UniProt P10646)", "tested on": "F10 factor Xa", "assay": "factor Xa inhibition", "system": "HUVEC", "conditions": "100 µg/mL total protein, final, α-cyclodextrin", "measurement": "free factor Xa", "result": "0.04 nM"}
{"Molecule": "MENVKKATATTTWMVPTAA (L3MBTL3 52-70 Q70A (Homo sapiens, UniProt Q96JM7-2); sequence looked up)", "tested on": "Rbpj 53-474 (Mus musculus, UniProt P31266)", "assay": "ITC", "system": "peptide", "conditions": "pH 6.5, 25 °C, NaCl 150 mM", "measurement": "ΔH", "result": "-14.2 kcal/mol"}
{"Molecule": "B2 (FGF6)", "tested on": "FGFR3 isoform IIIc", "assay": "cell proliferation, MTT", "system": "BaF3-FGFR3c", "conditions": "20 nM, 48 h, together with: chondroitin sulfate A 4.9 µg/mL", "scale": "reference: FGF 1 with heparin, higher = more proliferation", "measurement": "cell proliferation", "result": "4%"}
{"Molecule": "Ac-SQHNRQLLRGALRRWK-NH2 (SFI1 repeat 18, 677-692 (Homo sapiens); N-acetyl; C-terminal amide)", "tested on": "CETN1, phosphothreonine (Homo sapiens, UniProt Q12798)", "assay": "ITC", "system": "peptide", "conditions": "one-site model, together with: CaCl2 1 mM", "measurement": "molecule per partner", "result": 0.65}
{"Molecule": "B3 (mel-26)", "tested on": "mei-1/mei-2 S137A, phosphorylated by MBK-2 (Caenorhabditis elegans)", "assay": "dot blot", "conditions": "4 °C, native", "measurement": "binding", "result": "binds"}
{"Molecule": "DNAJC7 (Homo sapiens, UniProt Q99615)", "tested on": "T1, HSP90AA1 723-732 C-terminal peptide M to I, N-terminal 5-carboxyfluorescein (Homo sapiens)", "assay": "fluorescence polarisation", "conditions": "DnaJC7, mutant tracer, together with: 5-Fam peptide tracer 20 nM", "scale": "reference: wt Hsp90α tracer, higher = stronger binding", "measurement": "affinity change", "result": "> 2 fold"}
{"Molecule": "CNR1 (Homo sapiens, UniProt P21554)", "tested on": "ITGB1 (Homo sapiens, UniProt P05556)", "assay": "co-IP", "system": "endothelial cells, cell extracts", "conditions": "Ca2+-free, EGTA, together with: anandamide 10 µM", "scale": "reference: basal, without anandamide, higher = more CB1R bound", "measurement": "relative binding", "result": "0.3 ± 0.21 fold"}
{"Molecule": "B4 (KLRK1)", "tested on": "MICA extracellular domain 24-299 (Homo sapiens, UniProt Q29983)", "assay": "micropipette adhesion frequency", "conditions": "2D, in situ", "measurement": "koff", "result": "4.36 s⁻¹"}
{"Molecule": "UGT1A9 (Homo sapiens, UniProt O60656)", "tested on": "COc1c(O)cc2oc(-c3ccccc3)cc(=O)c2c1O", "assay": "steady-state kinetics", "conditions": "pH 7.4, 37 °C", "measurement": "Vmax/Km", "result": "866 µL/min/mg"}
{"note": "Excerpt of the above:"}
{"Molecule": "B1 (RAD51)", "tested on": "FBH1, polyubiquitinated (Homo sapiens, UniProt Q8NFZ0)", "assay": "single-molecule TIRFM", "conditions": "apparent, together with: ATP 1 mM", "measurement": "koff", "result": "0.11 s⁻¹"}
{"Molecule": "fabF R127A/K128A/R206A (Escherichia coli)", "tested on": "acpP C12-acylated 1-78, C12 acyl on 4'-phosphopantetheine (Escherichia coli, UniProt P0A6A8)", "assay": "holo-AcpP formation, HPLC", "conditions": "10 µM, together with: malonyl-CoA", "measurement": "condensation rate", "result": "0.13 min⁻¹"}
{"Molecule": "WRN fragment (Homo sapiens)", "tested on": "EXO1 (Homo sapiens, UniProt Q9UQ84)", "assay": "replication fork incision by EXO1, activator", "conditions": "4 nM, 15 min, 37 °C", "scale": "higher = more incision", "measurement": "incision", "result": "4 fold"}
{"Molecule": "F8 A2 domain (human)", "tested on": "F8 A1 and A3C1C2 dimer, factor VIIIa Y1792T", "assay": "FXa generation activity loss", "conditions": "1.5 nM, 23 °C", "scale": "higher = faster decay", "measurement": "decay rate", "result": "1.06 min⁻¹"}
